# Measurements collected from several papers.
# Parts stem from different laboratories: compare values within a part only. Substitutions count along the parent as printed.

# Study 1
# Target: Interferon regulatory factor 5, full length, phosphomimetic (IRF5, Homo sapiens, UniProt Q13568-2, residues 1-514, S451D/S453D/S456D/S462D)
# Technique: protein-binding microarray
# Form: double-stranded DNA, one strand shown
# Medium: in vitro
# Tested at: 940 nM top
# Notes: 60-bp whole probe
# With: salmon DNA 0.4 mg/ml
# Reference: random background probes
# Direction: higher = stronger binding
# Constant ends, left off below: GCCTAGCAC … GTCTTGATTCGCTTGACGCTGCTG
Oligonucleotide,fitted relative affinity [z-score]
TTAGGTACCGGTTTCGGTTAGTGCTAG,7.94
TTAGGACTGCTTTTCTTTTAGTGCTAG,0.217
GACGAACTGGGGACTGAAGACGTGCTA,0.114
TGCTTTCTTTAACTCATTTTGTGCTAG,1.95
GACGGGTTCGGGTTTCGGGACGTGCTA,2.03
TTAGGTATCGACATTCGGTTAGTGCTA,4.64
TTAGATTTCAGGTTTCGATTAGTGCTA,5.84
TTAGATATCAGTTTCGATAAGTGCTAG,7.46
TCAGTTTCCTCTTTCTTACTGTGCTAG,3.02
AGCAGTTTCTCAACCACTTTGTGCTAG,1.42
TTAGGACTGGGGTATCGGTTAGTGCTA,2.51
GACGGTTTCCTACCGCTGACGTGCTAG,0.352
GAAGGTTTCGACTATCGGGACGTGCTA,6.81
TTAGAACTGGGGACTGGATTGGTGCTA,0.0312
TCCCCTCCGGGACCCGCCTCGTGCTAG,-0.47
GACGAACTGTGTCTCGAGACGTGCTAG,0.21
TCAAGTCCCAAGAATGGTACTGTGCTA,-0.421
GACGGACTGGCCTTTCGGGACGTGCTA,-0.356
TTAGGTCTCGGTTTGGGTTAGTGCTAG,5.57

# Study 2
# Target: ABI1, truncated, D143A, DHFR fusion (Arabidopsis thaliana)
# Technique: DHFR PCA, deep sequencing
# Medium: yeast
# Notes: methotrexate growth selection, single substitutions
# With: (+)-ABA 710 µM
# Reference: wild-type fitted maximum
# Direction: higher = stronger binding
# Parent: PYL1, truncated, DHFR fusion (Arabidopsis thaliana); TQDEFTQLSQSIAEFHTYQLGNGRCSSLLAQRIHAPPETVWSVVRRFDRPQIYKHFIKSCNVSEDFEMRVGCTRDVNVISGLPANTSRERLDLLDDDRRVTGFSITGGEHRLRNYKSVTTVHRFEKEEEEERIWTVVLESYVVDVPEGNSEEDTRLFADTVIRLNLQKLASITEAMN; partner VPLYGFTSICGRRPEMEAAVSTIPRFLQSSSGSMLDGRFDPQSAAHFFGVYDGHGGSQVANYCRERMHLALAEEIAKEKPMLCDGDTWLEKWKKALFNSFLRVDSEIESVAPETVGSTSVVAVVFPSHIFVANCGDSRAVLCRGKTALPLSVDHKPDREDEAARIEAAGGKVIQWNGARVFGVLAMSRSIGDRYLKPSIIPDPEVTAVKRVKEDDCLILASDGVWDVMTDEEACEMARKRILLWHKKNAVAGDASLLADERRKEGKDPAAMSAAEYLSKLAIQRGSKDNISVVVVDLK
Substitution,relative binding score [%]
V44N,6.12
E152L,97.2
H122M,58.1
A175F,89.3
V40I,94.8
V40P,14.7
V161Y,89.3
K116I,57.1
Y53W,102
S27C,86.4
E127N,105
T73F,101
T17P,80.9
Y18H,102
R46H,85.9
L8A,81.9
L166F,69.4
H55S,106
T160Y,95
A170K,102

# Study 3
# Target: ATF5, bZIP domain (human)
# Technique: DHFR protein complementation
# Medium: yeast
# Notes: single substitutions, most at no-binding floor
# Reference: wild-type JUN-FOS pair
# Direction: higher = stronger binding
# Parent: JUN, bZIP domain (human); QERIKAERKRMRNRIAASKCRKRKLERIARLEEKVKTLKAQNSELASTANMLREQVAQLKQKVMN; partner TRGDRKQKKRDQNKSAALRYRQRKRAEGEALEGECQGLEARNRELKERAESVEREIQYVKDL
Substitution,binding fitness [natural log]
A49F,-1.48
S43W,-1.48
E54K,-0.989
K36M,-1.43
L31N,-1.46
E44P,-1.57
K34E,-1.26
N42G,-1.53
Q55G,-1.36
E54L,-1.32
E33G,-1.4
L52P,-1.55
S47Y,-1.51
A57M,-1.48
A29V,-1.54
I28K,-1.3
Q55D,-1.47

# Study 4
# Target: Sal-like protein 4, full length isoform A (SALL4, Homo sapiens, UniProt Q9UJQ4, residues 1-1053)
# Sequence of UniProt Q9UJQ4 (whole entry, looked up): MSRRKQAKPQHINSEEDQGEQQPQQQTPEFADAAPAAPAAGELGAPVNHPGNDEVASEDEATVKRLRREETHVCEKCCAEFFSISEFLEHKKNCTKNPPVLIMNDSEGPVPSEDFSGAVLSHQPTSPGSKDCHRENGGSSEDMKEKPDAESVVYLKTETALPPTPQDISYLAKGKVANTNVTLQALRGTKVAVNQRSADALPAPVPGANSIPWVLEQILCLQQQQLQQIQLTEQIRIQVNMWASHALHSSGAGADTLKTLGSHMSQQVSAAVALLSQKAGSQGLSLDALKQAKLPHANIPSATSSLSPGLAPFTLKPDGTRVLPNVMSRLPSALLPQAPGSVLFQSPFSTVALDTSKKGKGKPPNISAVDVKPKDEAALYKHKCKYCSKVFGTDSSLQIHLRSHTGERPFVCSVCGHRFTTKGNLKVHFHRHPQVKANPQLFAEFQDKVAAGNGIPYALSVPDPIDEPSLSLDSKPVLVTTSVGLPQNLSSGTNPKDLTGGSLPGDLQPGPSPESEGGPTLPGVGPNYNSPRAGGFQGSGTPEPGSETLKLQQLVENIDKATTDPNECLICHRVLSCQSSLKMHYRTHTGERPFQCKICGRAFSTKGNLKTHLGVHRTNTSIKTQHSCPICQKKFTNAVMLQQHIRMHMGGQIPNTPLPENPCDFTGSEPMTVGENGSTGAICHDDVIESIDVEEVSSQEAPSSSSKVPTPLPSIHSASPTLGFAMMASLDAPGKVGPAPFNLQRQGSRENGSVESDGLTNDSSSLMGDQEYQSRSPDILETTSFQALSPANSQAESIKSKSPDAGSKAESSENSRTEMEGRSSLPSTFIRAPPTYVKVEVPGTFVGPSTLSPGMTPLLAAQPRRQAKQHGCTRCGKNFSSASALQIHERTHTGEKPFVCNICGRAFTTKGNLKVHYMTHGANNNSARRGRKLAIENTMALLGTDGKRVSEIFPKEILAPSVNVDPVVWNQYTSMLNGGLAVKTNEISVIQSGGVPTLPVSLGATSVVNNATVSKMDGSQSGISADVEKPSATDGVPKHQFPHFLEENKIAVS
# Technique: universal PBM
# Form: double-stranded DNA, one strand shown
# Medium: in vitro
# Tested at: 600 nM
# Notes: 8-mer, flanks averaged, mean of replicates
# Direction: higher = stronger binding
Oligonucleotide,E-score
CTGTAGCA,0.0521
GCGATTCC,-0.175
CACTCATG,0.089
CAACATCA,0.222
CCTGATAC,0.136
ACTATAGC,0.0208
ATGGTTAA,0.23
CCCGGCAA,-0.222
AGTGTGTC,0.0671
CCACATAC,0.121
CCGTGTGA,-0.182
TCCGTACA,-0.00116
CTGCACGC,-0.271
GAAAGTAC,0.145
CTTGTCTC,-0.14
GCATTACC,-0.0314
GTTTGACA,0.207
TACTCGGA,0.161
CCACCCGG,-0.316
AACATGAC,0.0314
CATCCCGA,-0.136
ACGTTTTC,0.0903
TGAAGGCA,0.0901
CGATTGAA,-0.0354

# Study 5
# Target: CCND2, cyclin fold, Cln2 fusion (human)
# Technique: yeast growth competition, sequencing
# Medium: yeast
# Notes: weak parent motif
# Reference: not given
# Direction: higher = stronger binding
# Parent: BRCA2 docking peptide (human); PSIKRNLLNEFDR; partner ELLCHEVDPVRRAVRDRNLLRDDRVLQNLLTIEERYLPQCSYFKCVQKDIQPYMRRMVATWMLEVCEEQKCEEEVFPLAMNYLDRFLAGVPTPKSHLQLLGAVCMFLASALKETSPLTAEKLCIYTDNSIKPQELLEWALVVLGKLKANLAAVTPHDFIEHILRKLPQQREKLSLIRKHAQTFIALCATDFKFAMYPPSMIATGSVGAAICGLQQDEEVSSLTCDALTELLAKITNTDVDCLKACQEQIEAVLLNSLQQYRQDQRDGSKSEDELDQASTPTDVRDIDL
Substitution,normalised enrichment score
I3R,0.0453
L7T,0.285
P1M,0.356
N6Y,-0.032
R13K,-0.706
L7H,-0.363
L8N,0.31
R13L,-0.321
F11V,0.427
L8T,0.275
R13Y,-0.0572
E10C,-0.519
R5W,-0.284
P1W,0.688
S2I,0.879
L7A,-0.2
D12I,-0.715
F11G,0.146
D12G,0.34
K4T,-0.129
I3L,0.815
E10F,0.194
L8G,-0.0858
N9H,0.385
E10W,0.0632

# Some of these lines once more (study 5):
Substitution,normalised enrichment score
N6Y,-0.032
R13K,-0.706
L7H,-0.363
L8N,0.31
R13L,-0.321
F11V,0.427
L8T,0.275
R13Y,-0.0572
E10C,-0.519
R5W,-0.284
P1W,0.688
S2I,0.879
L7A,-0.2
D12I,-0.715
F11G,0.146
